# Experimental data from different studies.
# Lines come from different studies, so protocols differ. ± gives the spread as reported.
# PPO3: PPO3 (Agaricus bisporus, UniProt C7FF04)
# CES3: Carboxylesterase 3 (CES3, Homo sapiens, UniProt Q6UWW8)
# T1: RNA repeat, CUG repeat (Homo sapiens); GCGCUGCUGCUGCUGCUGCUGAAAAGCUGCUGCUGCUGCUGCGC
# T2: dsDNA; GCGCATATGCGC
# T3: DNA hairpin, hairpin, TTTT loop; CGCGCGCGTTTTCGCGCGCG
SMILES,target,test,system,setting,scale,endpoint,value
Cc1cc(N2CC[C@@](C#N)(C3(C)CC3)C2=O)cc(C(=O)NCc2cc(F)cc(-c3cnn(C)c3)c2)n1,"Proline--tRNA ligase (Plasmodium falciparum, UniProt Q8I5R7)",thermal shift,,no substrate,,melting temperature,78.5 °C
CNCC=C(C)C=CC=CC=CC1=C(C)CCCC1(C)C,"Rhodopsin, apoprotein (opsin) (RHO, Bos taurus, UniProt P02699)","regenerated pigment stability, thermal shift, BFC probe",ROS disk membranes,,,melting temperature,65.9 °C
C=Cc1c(C)c2cc3nc(c4c5[nH]c(cc6nc(cc1[nH]2)C(C)=C6CC)c(C)c5C(=O)C4)[C@@H](CCC(=O)NCC(=O)N1CCC[C@H]1C(=O)N[C@@H](CC(C)C)C(=O)NCC(=O)N[C@@H](Cc1ccccc1)C(=O)N[C@@H](CCCNC(=N)N)C(=O)N[C@H](C(=O)NCC(=O)N[C@@H](CCCCNC(=O)CCCN(C)c1ccc(/N=N/c2ccc4nc5ccc(N(CC)CC)cc5[n+](-c5ccccc5)c4c2)cc1)C(N)=O)C(C)C)[C@@H]3C,"Stromelysin-2 (Homo sapiens, UniProt P09238)",substrate,,"concentration not given, 24 h, 37 °C",reference: proteinase K,probe activation,~85%
CCc1nc2cc3ccccc3cc2cc1C(=O)N1CCC[C@H]1C(=O)N[C@@H](C/C=C\C[C@H](NC(=O)[C@@H]1CCCN1C(=O)c1cc2cc3ccccc3cc2nc1CC)C(=O)N[C@@H](CCCCN)C(=O)NCCCN)C(=O)N[C@@H](CCCCN)C(=O)NCCCN,(CAG)10 RNA,SPR,,,,residence time,462 s
C[C@@]12CC[C@@H]3c4cc(Cl)c(O)cc4CC[C@H]3[C@@H]1CCC2=O,"AKR1C1 (Homo sapiens, UniProt Q04828)","enzyme activity, inhibitor, absorbance",,"10 µM, pH 9",,inhibition,50%
CC(C)C[C@H](NC(=O)CNC(=O)[C@H](CC(C)C)NC(=O)[C@@H]1CCCN1C(=O)CNC(=O)[C@H](Cc1ccccc1)NC(=O)OCC1c2ccccc2-c2ccccc21)C(=O)N[C@@H](CCCNC(=N)N)C(=O)N[C@@H](CO)C(=O)N[C@@H](CCCCN)C(=O)O,"MMP9 (Homo sapiens, UniProt P14780)","substrate, HPLC",,"500 µM, 72 h, pH 7.5, 37 °C",,hydrolysis product,64%
Cc1ccc2c(c1Br)C(O)(CC(=O)c1ccc3c(c1)OCO3)C(=O)N2 (centres unmarked),"UAP1 (Homo sapiens, UniProt Q16222)",surface plasmon resonance,,concentration not given,,binding,no binding
Cc1cccc(C)c1NC(=O)CC(C)NCc1cccc2ccccc12 (centres unmarked),"SCN4A (Homo sapiens, UniProt P35499, F1586C)","phasic block of sodium current, whole-cell patch clamp",HEK293,10 Hz stimulation,,Hill coefficient,1.2 ± 0.2
COc1cc(C(=O)NC2CCC(N3CCN(CC4CCC5(CCCC5)C4)CC3)CC2)c(F)cc1Nc1ncc2c(n1)N(C1CCCC1(F)F)CC(F)(F)C(=O)N2C (centres unmarked),"EPHA5 (Homo sapiens, UniProt P54756)","cell-free assay, TR-FRET",,10 µM,,inhibition,2.86%
CNc1ccccc1C(=O)O[C@H]1C[C@H](n2cnc3c(N)ncnc32)O[C@@H]1COP(=O)(O)OP(=O)(O)O,"Unconventional myosin-Va (Gallus gallus, UniProt Q02440, D297C/G292C/I296C/S293C/V295G)",stopped-flow FRET,,"10 °C, with: MgCl2 10 mM",,pocket forward rate constant,0.37 ± 0.29 s⁻¹
CC1CCCn2cc(-c3cccc(NC(=O)CCOCCOCCOCCOCCOCCC(=O)Nc4cccc(-c5cn6c(n5)C(C)CCC6)c4)c3)nc21 (centres unmarked),"T1, RNA repeat, CUG repeat (Homo sapiens)",FRET thermal melting,,50 µM,,change in melting temperature,1.3 °C
CC(C)C[C@H](NC(=O)[C@H](CCC(=O)O)NC(=O)[C@@H](N)CS)C(=O)N[C@@H](CC(N)=O)C(=O)O,PPO3,"enzyme activity, inhibitor",,200 µM,,remaining activity,47.8%
CC[C@H](C)[C@H](NC(=O)[C@H](CCC(=O)O)NC(=O)[C@H](CCC(=O)O)NC(=O)[C@H](Cc1ccccc1)NC(=O)[C@H](CCCCN)NC(=O)[C@@H]1CCCN1C(=O)[C@H](Cc1c[nH]cn1)NC(=O)[C@H](CCCCN)NC(=O)[C@H](CO)NC(=O)[C@H](CC(C)C)NC(=O)[C@H](Cc1c[nH]cn1)NC(C)=O)C(=O)N[C@@H](CC(C)C)C(=O)N[C@H](C(=O)N[C@@H](CCCNC(=N)N)C(=O)N[C@@H](CC(C)C)C(=O)N[C@@H](CCCNC(=N)N)C(=O)N[C@@H](CC(C)C)C(=O)N[C@@H](CCC(N)=O)C(N)=O)[C@@H](C)O,"Calmodulin-1 (CALM1, Homo sapiens, UniProt P0DP23)",ITC,full-length calmodulin,"concentration not given, with: Ca2+",,binding stoichiometry,2
Cc1ncsc1-c1ccc([C@@H]2CCCCCCNC(=O)C[C@@H]3N=C(c4ccc(cc4)OCCCCCC(=O)N[C@@H](C(C)(C)C)C(=O)N4C[C@H](O)C[C@H]4C(=O)N2)c2c(sc(C)c2C)-n2c(C)nnc23)cc1,"BRD4 (Homo sapiens, UniProt O60885)","degrader, immunoblotting",PC-3,"64 nM, 24 h, both isoforms",,degradation,> 90%
[3H]C([3H])([3H])c1cnccc1CN1C[C@@H](c2cc(F)c(F)c(F)c2)CC1=O,"SV2A (Homo sapiens, UniProt Q7L0J3)","radioligand binding, autoradiography","human, post-mortem temporal lobe",2 nM,,total binding,111 fmol/mg
O=C(O)C(=O)NCc1ccc(F)cc1F,"DUSP3 (Homo sapiens, UniProt P51452)",ligand-observed 19F NMR,,"concentration not given, with: DUSP3 4 or 8 µM",,binding,active
C[n+]1c(C=Cc2ccc(O)c(C=Cc3sc4ccccc4[n+]3C)c2)sc2ccccc21,"T2, dsDNA",fluorescence enhancement,,,,binding,binds weakly
C#CCOCCOc1ccc(-c2ncc[nH]2)cc1NC(=O)C#Cc1ccccc1,"VCP (Homo sapiens, UniProt P55072)","covalent inhibitor, in-gel fluorescence labelling",recombinant protein,,,kinact/KI,163000 M⁻¹ s⁻¹
CC(C)C[C@H](NC(=O)[C@H](CC(N)=O)NC(=O)[C@H](CCCNC(=N)N)NC(=O)[C@@H](N)CS)C(=O)O,PPO3,"enzyme activity, inhibitor",,12.5 µM,,remaining activity,78.4%
COc1ccc2[nH]c(-c3cccc(F)n3)nc2c1,"Core-binding factor subunit beta, with RUNX1 Runt domain (Homo sapiens, UniProt Q13951)","protein binding, inhibitor, FRET",,"concentration not given, with: Runt domain",,activity class,inactive
CC1=C(/C=C/C(C)=C/C=C/C(C)=C/C=O)C(C)(C)CCC1,"CNGA1 (Bos taurus, UniProt Q00194)","channel binding, allosteric model fit",,open channel,,association constant K4,2e+09 M^-n
O=C(NC[C@@H](Cc1ccc(F)cc1)N1CCC(O)(C(F)(F)F)CC1)C1(c2ccc(Cl)cc2)CCCC1,"TRPA1 (Homo sapiens, UniProt O75762)","calcium influx, agonist",HEK293F transfected,unit not given,reference: AITC,Emax,0.41 ± 0.03
O=C1CSc2ccccc2N1CC(=O)N(c1ccc(F)cc1)c1ccc(F)cc1,"Proteasome subunit alpha type-2/Proteasome subunit alpha type-6, 20S proteasome (Homo sapiens, UniProt P25787+P60900)","proteolysis, activator, fluorogenic peptide",purified 20S proteasome,"up to 30 µM, with: Suc-LLVY-AMC, Z-LLE-AMC, Boc-LRR-AMC",reference: vehicle,maximum fold increase,4.3 ± 1.3
CC(=O)N[C@@H]1[C@@H](O[C@@H]2O[C@H](C(=O)O)[C@@H](O[C@@H]3O[C@H](COS(=O)(=O)O)[C@@H](OS(=O)(=O)O)[C@H](O[C@@H]4O[C@H](C(=O)O)[C@@H](O[C@@H]5O[C@H](COS(=O)(=O)O)[C@@H](OS(=O)(=O)O)[C@H](O[C@@H]6O[C@H](C(=O)O)[C@@H](OS(=O)(=O)O)[C@H](OS(=O)(=O)O)[C@H]6OS(=O)(=O)O)[C@H]5NC(C)=O)[C@H](OS(=O)(=O)O)[C@H]4OS(=O)(=O)O)[C@H]3NC(C)=O)[C@H](OS(=O)(=O)O)[C@H]2OS(=O)(=O)O)[C@H](OS(=O)(=O)O)[C@@H](COS(=O)(=O)O)O[C@H]1N=[N+]=[N-],"FGF1 (Homo sapiens, UniProt P05230)",FP competition,,,"reference: cpd over monovalent azide analogue, higher = stronger binding",binding affinity ratio,15 fold
CCCCCCCCCCCC(=O)Nc1ccc(OC)nc1C,CES3,substrate,,"50 µM, pH 8, 37 °C, enzyme purity 3%",,specific activity,9.8 pmol/min/µg
COc1cc(F)c(C(C)C)cc1C1=C(CN2C(=O)O[C@H](c3cc(C(F)(F)F)cc(C(F)(F)F)c3)[C@@H]2C)CC(C)(C)CC1,"Cholesteryl ester transfer protein (Homo sapiens, UniProt P11597)",enzyme activity,"healthy male subjects, plasma","oral, 50 mg single dose",,time of maximum inhibition,6.3 h
[Ru+2].[Ru+2].c1cnc2c(c1)c1nc(-c3ccc(OCCOCCOCCOCCOc4ccc(-c5nc6c7cccnc7c7ncccc7c6[nH]5)cc4)cc3)[nH]c1c1cccnc12.c1cnc2c(ccc3nccnc32)n1.c1cnc2c(ccc3nccnc32)n1.c1cnc2c(ccc3nccnc32)n1.c1cnc2c(ccc3nccnc32)n1,"T3, DNA hairpin, hairpin, TTTT loop",BLI,,"pH 7.04, K+ 100 mM",,Kd,940 nM
COc1ccc(NC(=O)c2ccccc2)c(C)n1,CES3,substrate,,"50 µM, pH 8, 37 °C, enzyme purity 3%",,specific activity,< 1 pmol/min/µg
O=C1CCC(N2C(=O)c3cccc(NCCOCCOCCOCCOCCOCCOCCOCCNCCNc4nonc4/C(=N/O)Nc4ccc(F)c(Br)c4)c3C2=O)C(=O)N1 (centres unmarked),"IDO1 (Homo sapiens, UniProt P14902)","degrader, western blot",HeLa,"24 h, with: IFN-γ 5 ng/mL",,Dmax,93%

# For quick reference, copied from above:
SMILES,target,test,system,setting,scale,endpoint,value
Cc1cccc(C)c1NC(=O)CC(C)NCc1cccc2ccccc12 (centres unmarked),"SCN4A (Homo sapiens, UniProt P35499, F1586C)","phasic block of sodium current, whole-cell patch clamp",HEK293,10 Hz stimulation,,Hill coefficient,1.2 ± 0.2
CCc1nc2cc3ccccc3cc2cc1C(=O)N1CCC[C@H]1C(=O)N[C@@H](C/C=C\C[C@H](NC(=O)[C@@H]1CCCN1C(=O)c1cc2cc3ccccc3cc2nc1CC)C(=O)N[C@@H](CCCCN)C(=O)NCCCN)C(=O)N[C@@H](CCCCN)C(=O)NCCCN,(CAG)10 RNA,SPR,,,,residence time,462 s
